Measured values from different studies.
Protocols differ between the studies behind these lines. Values joined by “and” are separate records of one study, mostly repeats; a detail may differ. Numbers after ± are the reported error.
Chain of UniProt P08183 (whole entry, looked up): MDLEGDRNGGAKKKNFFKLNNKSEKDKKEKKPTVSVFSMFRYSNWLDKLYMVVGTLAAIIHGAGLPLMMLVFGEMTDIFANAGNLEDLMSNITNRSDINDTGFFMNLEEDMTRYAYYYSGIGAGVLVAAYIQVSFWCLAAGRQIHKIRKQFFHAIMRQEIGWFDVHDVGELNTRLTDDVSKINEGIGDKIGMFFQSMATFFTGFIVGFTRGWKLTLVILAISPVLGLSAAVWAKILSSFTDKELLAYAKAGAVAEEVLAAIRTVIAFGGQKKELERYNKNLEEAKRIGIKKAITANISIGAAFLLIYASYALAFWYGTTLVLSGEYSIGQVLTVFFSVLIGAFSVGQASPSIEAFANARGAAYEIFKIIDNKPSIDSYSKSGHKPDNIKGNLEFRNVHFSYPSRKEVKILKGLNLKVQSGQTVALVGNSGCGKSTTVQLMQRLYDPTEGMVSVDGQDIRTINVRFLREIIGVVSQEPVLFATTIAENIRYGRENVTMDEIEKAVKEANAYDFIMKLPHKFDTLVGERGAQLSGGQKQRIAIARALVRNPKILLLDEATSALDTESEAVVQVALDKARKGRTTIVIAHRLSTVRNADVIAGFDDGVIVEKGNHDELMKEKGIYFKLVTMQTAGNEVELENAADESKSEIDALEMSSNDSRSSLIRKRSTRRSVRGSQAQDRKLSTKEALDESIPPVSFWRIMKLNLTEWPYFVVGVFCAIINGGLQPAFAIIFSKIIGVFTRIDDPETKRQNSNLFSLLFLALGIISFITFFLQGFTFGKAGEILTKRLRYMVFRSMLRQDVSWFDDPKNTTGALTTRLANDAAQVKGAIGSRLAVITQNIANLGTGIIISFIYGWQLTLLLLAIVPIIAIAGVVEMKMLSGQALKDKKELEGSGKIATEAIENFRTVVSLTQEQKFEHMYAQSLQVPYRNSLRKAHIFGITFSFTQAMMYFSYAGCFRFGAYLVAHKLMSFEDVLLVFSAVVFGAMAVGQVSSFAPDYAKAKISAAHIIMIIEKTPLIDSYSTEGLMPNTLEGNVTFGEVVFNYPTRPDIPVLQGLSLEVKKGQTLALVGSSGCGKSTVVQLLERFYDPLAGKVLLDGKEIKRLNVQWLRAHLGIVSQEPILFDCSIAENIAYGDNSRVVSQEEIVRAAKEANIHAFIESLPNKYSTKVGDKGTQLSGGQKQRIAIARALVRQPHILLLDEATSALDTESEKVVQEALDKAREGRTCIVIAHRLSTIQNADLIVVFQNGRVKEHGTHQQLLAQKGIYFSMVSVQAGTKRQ

| Structure (SMILES) | target or system | test | test system | setting | how to read | quantity | result |
| --- | --- | --- | --- | --- | --- | --- | --- |
| CC(=O)NCCCC[C@@H]1NC(=O)[C@H](Cc2c[nH]c3c(C)cccc23)NC(=O)[C@H]([C@@H](C)O)NC(=O)[C@H](CC(N)=O)NC(=O)[C@@H](NC(C)=O)C(C)(C)SSC(C)(C)[C@@H](C(=O)N[C@@H](Cc2ccc(OCCN)cc2)C(=O)N[C@@H](Cc2ccc3ccccc3c2)C(=O)NC2(C(=O)N[C@@H](CCC(=O)O)C(=O)N[C@@H](CC(N)=O)C(=O)N[C@@H](Cc3cccnc3)C(=O)N(C)CC(N)=O)CCOCC2)NC1=O | ABCB1 (Homo sapiens, UniProt P08183) | transport, inhibitor | LLC-PK1 cells | concentration not given, added: [3H]digoxin | – | inhibition | no inhibition |
| CNC(=O)C[C@H](Cc1ccc(F)cc1)NC(=O)[C@@H](Cc1ccc(Cl)cc1Cl)NC(=O)[C@H](N)Cc1ccccc1C#N | Huh-7-ACE2 | CellTiter-Glo | – | 1.562 µM, 48 h, unit not given | relative to: DMSO | viability | 0.966 and 1.02 and 0.925 |
| COc1ccc(-n2cc(C(=O)N3C[C@]4(OC(=O)c5ccccc5NC(C)=O)CC[C@H](OC)[C@@]56[C@@H]4C[C@@H]([C@@H]35)[C@@]3(O)C[C@H](OC)[C@H]4C[C@@H]6[C@]3(O)[C@H]4OC)nn2)cc1 | – | – | rat Sprague-Dawley, plasma | intravenous, 2 mg/kg, 2 h | – | plasma concentration | 5.98 ng/mL |
| CNC(=O)C[C@H](Cc1ccncc1)NC(=O)[C@@H](Cc1cccc(Br)c1)NC(=O)[C@@H](N)Cc1cccc(F)c1 | Huh-7-ACE2 | CellTiter-Glo | – | 12.5 µM, 48 h, unit not given | relative to: DMSO | viability | 1.03 and 1.09 and 1.08 |
| Cc1nc2cccc(OCC(C)(C)C(=O)NC(C)C)c2c(N)c1C(=O)[O-].[Na+] | Escherichia coli | reverse mutation, preincubation | WP2 uvrA | 0.32 mg/plate, without S9 | – | revertant colonies | 21 ± 3 colonies/plate |
| Cc1ccc(NS(=O)(=O)c2c(C(=O)N3CCCCCC3)c(C)n(C)c2C)c(Cl)c1 | human cells | – | – | 100 µM, 60 h | – | viability | 97.2% |
| O=C1NC2(CC2)COc2ncc(F)cc2[C@H]2COCCN2c2ccn3ncc1c3n2 | – | – | Sprague-Dawley rat, female, serum | oral, 10 mg/kg/day, 4 weeks daily, end of recovery period | – | alkaline phosphatase activity | 48.4 ± 12.1 U/L |
| Cc1cc(-c2ccc3ccccc3c2)nnc1NCCN1CCN(C)CC1 | Caco-2 | – | – | 5 µM, 0.5 h, added: valspodar 1.0 µM | – | Papp A-B | 22 ×10⁻⁶ cm/s |
| C[C@@H](c1ccc2nccn2c1)n1nnc2ncc(-c3cn[nH]c3)nc21 | human CYP3A4/5 | inhibitor | pooled human liver microsomes | reversible inhibition, added: testosterone substrate | – | IC50 | 20 µM |
| COc1cc2c(cc1NC(=O)c1cncn1C)C[C@H]1[C@H]3CCCC[C@@]23CCN1C | – | – | C57BL/6 mouse, plasma | oral, 50 µg/g, 30 min | – | plasma concentration | 8010 ng/mL |
| CNC(=O)CC1CN(C(=O)c2ccc(C(F)(F)F)cn2)CCN1C(=O)c1cccnn1 (centres unmarked) | Huh-7-ACE2 | CellTiter-Glo | – | 0.781 µM, 48 h, unit not given | relative to: DMSO | viability | 1.17 and 1.06 and 1.04 |

Some of these lines once more:
| Structure (SMILES) | target or system | test | test system | setting | how to read | quantity | result |
| --- | --- | --- | --- | --- | --- | --- | --- |
| O=C1NC2(CC2)COc2ncc(F)cc2[C@H]2COCCN2c2ccn3ncc1c3n2 | – | – | Sprague-Dawley rat, female, serum | oral, 10 mg/kg/day, 4 weeks daily, end of recovery period | – | alkaline phosphatase activity | 48.4 ± 12.1 U/L |
| Cc1cc(-c2ccc3ccccc3c2)nnc1NCCN1CCN(C)CC1 | Caco-2 | – | – | 5 µM, 0.5 h, added: valspodar 1.0 µM | – | Papp A-B | 22 ×10⁻⁶ cm/s |
